# Assay results pooled from the literature.
# A part holds a random share of what one study measured.

# Set 1
# Target: Ras GTPase-activating protein-binding protein 1, C-terminal RGG region (G3BP1, Homo sapiens, UniProt Q13283)
# Chain of UniProt Q13283 (whole entry, looked up): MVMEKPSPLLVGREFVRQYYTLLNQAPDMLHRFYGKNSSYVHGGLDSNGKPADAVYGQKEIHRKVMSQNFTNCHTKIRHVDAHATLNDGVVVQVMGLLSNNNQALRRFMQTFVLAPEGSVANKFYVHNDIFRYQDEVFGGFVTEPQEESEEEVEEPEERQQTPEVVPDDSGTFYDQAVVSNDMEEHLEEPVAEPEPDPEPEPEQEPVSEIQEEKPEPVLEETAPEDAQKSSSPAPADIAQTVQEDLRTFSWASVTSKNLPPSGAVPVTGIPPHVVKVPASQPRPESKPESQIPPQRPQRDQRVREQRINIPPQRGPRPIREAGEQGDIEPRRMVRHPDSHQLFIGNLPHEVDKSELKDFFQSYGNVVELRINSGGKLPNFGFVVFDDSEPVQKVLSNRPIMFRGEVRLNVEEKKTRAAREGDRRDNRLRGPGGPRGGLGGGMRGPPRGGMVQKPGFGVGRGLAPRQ
# Method: RNA Bind-n-Seq
# Form: RNA
# Sample: in vitro
# Concentration: 1 µM
# Notes: whole 134-nt RNA, ends assumed
# Together with: 150 mM KCl
# Relative to: input library
# Direction: higher = stronger binding
# All sequences stand within: GGGAGUUCUACAGUCCGACGAUC … UGGAAUUCUCGGGUGUCAAGG
Sequence,log2 enrichment
UCCUGUGCUACACAUCGUAUGUACCGAAUCGGGGAAAAAAGGAAAAAAGGAAAAAAGGGGAAAGUAUUAUGUUACGCCGUUCGGAUCUGC,-1.46
AGUCCUGUGCUACACAUCGUAUGUACCGAAUCGGUUUUUGGAAAAAGGAAAAAAAGGAAAGUAUUAUGUUACGCCGUUCGGAUCUGCACU,-2
UCCUGUGCUACACAUCGUAUGUACCGAAUCGGGCCCCCCCGGCCCCCCCGGCCCCCCCGGAAAGUAUUAUGUUACGCCGUUCGGAUCUGC,-1.08
CCUGUGCUACACAUCGUAUGUACCGAAUCGGGGAAAGGGGAAAAAAAGGGGAAAAAGGGGAAAGUAUUAUGUUACGCCGUUCGGAUCUGC,0.308
CCUCAAGUCCUGUGCUACACAUCGUAUGUACCGAAUCGGUGGGGUGGGGUGGGAAAGUAUUAUGUUACGCCGUUCGGAUCUGCACUUCCA,1.08
CACAGACAACACGCACCCACACAGACACAGAGGGAAGGGGUAGGGAUGGGGACAGGGUGCACAGCAGGGCGGGGUAGGACCCCAGCCCCU,-0.145
UCAAGUCCUGUGCUACACAUCGUAUGUACCGAAUCGGGCCGGGGCCGGGGCCGGGAAAGUAUUAUGUUACGCCGUUCGGAUCUGCACUUC,-1.25
CCUCAAGUCCUGUGCUACACAUCGUAUGUACCGAAUCGGGCGGGCGGGCGGGGAAAGUAUUAUGUUACGCCGUUCGGAUCUGCACUUCCA,4.22
CAAGUCCUGUGCUACACAUCGUAUGUACCGAAUCGGAAAGGUUUUUUUGGAAAGGAAAGUAUUAUGUUACGCCGUUCGGAUCUGCACUUC,-2.22
CCUCAAGUCCUGUGCUACACAUCGUAUGUACCGAAUCGGAAGGAAGGGAAGGAAAGUAUUAUGUUACGCCGUUCGGAUCUGCACUUCCAG,-0.837
CAAGUCCUGUGCUACACAUCGUAUGUACCGAAUCGGUUUGGUUUUUGGAAAAAGGAAAGUAUUAUGUUACGCCGUUCGGAUCUGCACUUC,-1.57
GUCCUGUGCUACACAUCGUAUGUACCGAAUCGGAAAAAGGGAAAAAGGGGAAAAAGGGGAAAGUAUUAUGUUACGCCGUUCGGAUCUGCA,-0.824
UAACUUUAGAGGAGGAUCUGAUGGAUAUGGCAGUGGACGUGGAUUUGGGGAUGGCUAUAAUGGGUAGGGAGGAGGACCUGGAGGUGGCAA,-0.611
UCAAGUCCUGUGCUACACAUCGUAUGUACCGAAUCGGGUGGGAAAGGGAAAGGGAAAGUAUUAUGUUACGCCGUUCGGAUCUGCACUUCC,1.49

# Set 2
# Target: RNA binding protein fox-1 homolog 2, RRM domain, GST-SBP tag (RBFOX2, Homo sapiens, UniProt O43251-10, residues 100-194)
# Method: RNA Bind-n-Seq
# Form: RNA
# Sample: in vitro
# Concentration: 365 nM
# Notes: natural RNA segment, single round, ends assumed
# Relative to: no-protein control
# Direction: higher = stronger binding
# All sequences stand within: GGGAGUUCUACAGUCCGACGAUC … UGGAAUUCUCGGGUGCCAA
# Construct (chain): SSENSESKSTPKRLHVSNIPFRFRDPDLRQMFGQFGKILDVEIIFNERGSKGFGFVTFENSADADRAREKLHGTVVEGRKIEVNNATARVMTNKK
Sequence,RBNS enrichment (R)
GACAAUGAGUAACUGGUCUACUGAACCCUUUAAUAGCAUUUUAAUGUUACUGAGUCAGGAGAUUCAUAAGUAACUAAGAAACUGGCAGGUCAUACUGGGCAACAGUGUUC,0.385
GGGUGAAGAACCCUCUGUCCCACCCCUAGCCACCAGUGUCCUCCAAGUGCCCCCUCACCUCUCCAGGUGCUCAUUGUAACCAUUUCUCACUAGUGUCAGGCCCCCAGUGG,0.409
GUACAGAUGUGUCUCAGUUGUGAAGGUCUAUUCCUGGCUGCACAGUCCCCAUCCGCUCAGUCAUCUUACCCUGUGACUGCUCUCAGCCCUGAAGAAUCCACAACCAUCCU,0.312
AUGCAUUAGAAGGUUUUUUUGUCGAUUAGUAAAAGUGCUUUCCAUGUUACUUUAUUCAGAGCUAAUAAGUGCUUUCCUUAGUUUUCUAGUAACUAGGUGUAAAAAUCAUG,0.393
AGCCCAAAGCAGGUUCUAAUAAGAAUGCACCAAAGCCUUCAGCCUUAGCAAAGACAACUGCUCCUGCUCCACUAGAUAUGACUUCCUCUCCUGUGACAACAGCCAGUUUA,0.253
ACCCUCUUUAUGAAGUGAAUUACCAAUGCUUUGAAUAAUGUUCACUUAUACAUUCCUGUACAGAAAUUACGAUUUUGUGAUUACAGUAAUAAAAUGAUAUUCCUUGUGAA,0.585
UAGAUUAGCCAUCUUUCAAAUUCACUUUUAUUUCAGUCCUUAUAUUUCAUAUACUUCCGUCUCGAUGCUGUUAACAACUUCUGAUAACAUGGAAAAUUCAAGGAUUGUUU,0.479
AGCUAGCUACAUUGCAGCAGAGUUGUUGUGUAUGUGUGCAUUUAAAGAAGAUAAUGCUUAUUCUGUUAAUGCACACUUUUAAGUUUUGAUGAUUUUUUACAGUGUUUUAG,0.363
AUCUGAGUAACUGCUCUUGGUGGCUUCCACUGCCCUGAGGCUUUGAGGGAAGCACCUAACCUCUGCUGCUUUGCAAGGAAGGCUCCUUGCAAUCUGGAGAGAGACUCGGU,0.339
UCCCUGUCAUCUGGGGAUGGGGAGGAAUUCAGGCCUGUUCACUUCCCCAGUUCUGUAGCAGCCGAUCAGCGUCACCUUUGAAGUAUACAUGAGAGAAAUAUAUUUACAAA,0.948
UUCCUAGAGUUGCACCCUAGCAACCUAGCCAGAAAAGCAAGUGGCAAGAGGAUUAUGGCUAACAAGAAUAAAUACAUGGGAAGAGUGCUCCCCAUUGAUUGAAGAGUCAC,0.307
GGGGCAAAAUGCUGCCAGUCUCUUUGCUAAAACAUAACAAGAGUCACCUUUACUCCAGUUCCCAACAAGUUCCUCAUCUUCAUCUGAGGCCACCUCAGCCUGGACUUUGU,0.343

# Set 3
# Target: Interferon regulatory factor 5, full length, phosphomimetic (IRF5, Homo sapiens, UniProt Q13568-2, residues 1-514, S451D/S453D/S456D/S462D)
# Method: protein-binding microarray
# Form: double-stranded DNA, one strand shown
# Sample: in vitro
# Concentration: 940 nM top
# Notes: 60-bp whole probe
# Together with: salmon DNA 0.4 mg/ml
# Relative to: random background probes
# Direction: higher = stronger binding
# All sequences stand within: GCCTAGCAC … GTCTTGATTCGCTTGACGCTGCTG
Sequence,fitted relative affinity
TTCGGTTTCCTTTTCCTTTAGTGCTAG,2.28 z-score
TTAGGAGTGGGGACTGGGTTAGTGCTA,-0.104 z-score
GACGGTTTCCCTCTCCTGACGTGCTAG,1.45 z-score
TTTGTCATCTATAATGGATATGTGCTA,0.105 z-score
TTAGGTCACCTTCTCCTTTAGTGCTAG,0.333 z-score
TATTGTGTCAACTTTCTCTGCGTGCTA,0.116 z-score
CACATTGTGCAATCTTAATAAGTGCTA,-0.123 z-score
GATGGTTTCGACTATCGGGACGTGCTA,9.71 z-score
TTAGGTCTACTTTTCCTTTAGTGCTAG,0.252 z-score
GAGGGTCTCGGACTGGGGACGTGCTAG,0.078 z-score
TTAGGAATCCTTCTCCTTTAGTGCTAG,-0.323 z-score
TCAGATTTCAGACTGGATTAGTGCTAG,0.0132 z-score
GACCGTATCGACTTTCGGGACGTGCTA,2.66 z-score
GACGTTTTCAGACTGGAGACGTGCTAG,-0.314 z-score
TTAGAACTGGGGTATCTATTAGTGCTA,0.535 z-score
TTAGGTAGCGGGTTTCGGTTAGTGCTA,5.69 z-score
GACGAACTGCGTCTCGAGACGTGCTAG,-0.211 z-score
GACGGTATCGACACCGGGGACGTGCTA,4.2 z-score
TTAGGTATACTTATCCTTTAGTGCTAG,-0.281 z-score
TCAGGTAGCCTTATCCCACTGTGCTAG,-0.21 z-score
TTAGAACTGAGAGTGGATTAGTGCTAG,-0.29 z-score
TCATCATTGCCTATTTTTCAGTGCTAG,1.17 z-score
GACGGTTTCGGTCTCGGGACGTGCTAG,13.8 z-score
TTAGGTATCGACACTGAGTTAGTGCTA,4.55 z-score
GACGATCTCACTATCGAGACGTGCTAG,0.943 z-score

# Set 4
# Target: Prothrombin, mature alpha-thrombin (F2, Homo sapiens, UniProt P00734)
# Method: aptamer microarray, sandwich
# Form: DNA with 2'F-ANA
# Sample: in vitro
# Concentration: 200 nM
# Notes: whole 15-mer aptamer, many near background
# Together with: Cy3 exosite-II aptamer, 400 nM
# Direction: higher = stronger binding
# Sequence: GGTTGGTGTGGTTGG
Modification,mean fluorescence intensity [a.u.]
2'F-ANA at 3 4 7 9 10 11 12 14 15,201
2'F-ANA at 2 4 7 9 10 14 15,69.3
2'F-ANA at 2 3 5 6 8 11 15,183
2'F-ANA at 2 4 5 6 7 8 9 10 11 15,52.9
2'F-ANA at 1 3 4 5 7 8 10 11 13 15,49.5
2'F-ANA at 3 5 8 9 10 14,84.1
2'F-ANA at 1 2 4 5 6 10 11 13 14,62.5
2'F-ANA at 2 3 4 6 10 11 13 14 15,124
2'F-ANA at 1 9 11 14,53.1
2'F-ANA at 3 4 5 6 7 10,51.4
2'F-ANA at 3 4 6 7 9 10 11 12 13 14 15,152
2'F-ANA at 3 10 11 12 13 15,620
2'F-ANA at 1 4 7 8 9 12,331
2'F-ANA at 1 6 8 10 11,53.3
2'F-ANA at 4 7 8 9 11 12 13 14,102
2'F-ANA at 3 4 5 7 8 10 12 15,72.5
2'F-ANA at 2 3 7 8 10 12 13 14 15,276
2'F-ANA at 3 5 8 10 11 12 15,69.3
2'F-ANA at 1 2 4 9 10 12 15,60.4
2'F-ANA at 5 6 10 12,49.7
2'F-ANA at 1 2 6 12 14 15,61.5
2'F-ANA at 3 5 8 9 11 13,113
2'F-ANA at 3 5 8 9 14,112
2'F-ANA at 1 2 3 4 6 7 9 10 15,61.4
2'F-ANA at 1 2 8 9 11 12 13 14 15,65.3
